Assay results gathered from unrelated publications.
Every numbered part comes from another study and shows a few of its results, in no order. Positions count from the first letter of the parent shown.

Set 1 — method: RNA Bind-n-Seq; form: RNA; matrix: in vitro; tested at: 365 nM; reference: no-protein control; reading: higher = stronger binding
Target: RNA binding protein fox-1 homolog 2, RRM domain, GST-SBP tag (RBFOX2, Homo sapiens, UniProt O43251-10, residues 100-194)
Notes: natural RNA segment, single round, ends assumed
Constant ends, left off below: GGGAGUUCUACAGUCCGACGAUC … UGGAAUUCUCGGGUGCCAA
Residues (chain): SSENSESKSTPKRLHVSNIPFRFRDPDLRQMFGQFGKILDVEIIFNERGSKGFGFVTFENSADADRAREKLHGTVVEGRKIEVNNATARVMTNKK
Sequence | RBNS enrichment (R)
AGGGACACCUGGGCCAAUGGGCCAUCUGGACCAAAGGUGGGGUGUGGGGCCCUGGAUGGCAGCUCUGGCCCAGACAUGAAUACCUCGUGUUCCUCCUCCCUCUAUUACUG | 1.03
GCUCACUCCCCAACCCCCAACUCCGUGUGGUAAGCAACAUGGCUUUGAUGAUAAACGACUUUACUCUAAAAGCGGCUGGAACUCAGUGACAUGAGCGUGCGCUGACCCCA | 0.35
UCUCUUUAGUUGUGAUUUGAUUCUAUAGUCUGUUUCUAAAUGACAUUUGUCUGUUUCUUAAAUGAUCUCACAGCCAUGGUAAUAAUAGAUGUGUACUCAGAAGAUCAAUA | 0.531
GGUCCUCUAGAGCACGGGUUUGGAGAAAUGACUGUUUUCAUGAAAGCACCAUUAGCACCACAGAAUUCACCCACUGCCUGUUUUUCCUUUUCCUUUCUCAAACCUACUCA | 2.95
AUAAUAUGUAUAAUUUGAAUUUUUUGUGACUGAUCCUUGGCAGUAUAAAUGAUAAAAGUAAAUGUAAUGGAAUCUUUUAAUUAGGCUAAGAUAUGCUAUUUCAUAACUUA | 1.12
ACGACAACAAUUCCACGAUGCCAAAUUCAUGGCAGACAUUGAUCUGGAUCCAGGCUGUACAUUGAAUAAAAAGAUUCGAAAUGCACAGUUAGCACAGUAUAACUUCAUUU | 0.226
ACAUGACAGGACCUAUCGUUGAGGUUUCUAAGACUUACUAUGGGCUGUAAACCUGUUUUUUAAAACUAUUUUAGAAACCUGAGACUUGCCGUCUGGCAUUUUAGUUUAAU | 0.672
UCCUUCCUACAGAAACUGUUUCUCCUCCUCCCCUCCAGCCUUCACACAAGGGCCUUGGCUUUGUUGAGACAGAGCCUGUGCUGGCACUUGCUGUUAGGGUAGGAAGAGGC | 0.3
GACAUUUUGAGGUCUGCUUAGCUAUGGCCCCCCUUUCCCAGAUGACCCCUUUCAUGGAAACGGUGUCUGGGGCAGAUAAACAUUGGGUACCUUCACUGUUUUGAGGGGGG | 0.194
GUAGCCUAAGUAGGUCGUGGCAAGGGCCUGAGGCCUGUUCCUCACAGGCUUCCAGGUUAGGCACUGUGAAUAGGCUCAGCUCCUCUAGAGAGCUGAAGCCAUCUGGUUCU | 0.382
AUGGUUACACUGUUAGAACACUAUUUUUCAGAAUCUGAAUGUAAUUUGUGUAAUAAAGUGUUUUCAGGCAUUAGCAGUCAGAGUGUAUUUUUGUGAUUUUUUGCACACUU | 0.855
AAGAAGAGGGAGAUACUAGAGGAACUGAGGCUCCACCCAUUCAUUCAGUUGCUCUAAGCACCAGAGGACUUGUUUCAGAAAAGGGGAGUGGGAACGCCCUCGACUUUGCC | 1.63

Set 2 — method: protein-binding microarray; form: double-stranded DNA, one strand shown; matrix: in vitro; tested at: 940 nM top; notes: 60-bp whole probe; added: salmon DNA 0.4 mg/ml; reference: random background probes; reading: higher = stronger binding; constant ends, left off below: GCCTAGCAC … GTCTTGATTCGCTTGACGCTGCTG
Target: Interferon regulatory factor 5, full length, phosphomimetic (IRF5, Homo sapiens, UniProt Q13568-2, residues 1-514, S451D/S453D/S456D/S462D)
Sequence | fitted relative affinity [z-score]
TTAGGTATCCTTAACCTTTAGTGCTAG | 0.272
GTCGATATCGGGTTTCGAGACGTGCTA | 3.09
TTACGTCTCGGTTTCGGTTAGTGCTAG | 10.6
GACGACTTCGGGTATCGAGACGTGCTA | 0.73
TTCATTATTGTTTCCTCTTTGTGCTAG | 1.82
GCAGGGCAGGCAGGCTGAGGGTGCTAG | -0.988
TTAGGTTTCCTGTTCCTTTAGTGCTAG | 1.51
GACGGTTTCGACTATCGGGAAGTGCTA | 8.33
TTAGATTTCGTGACTGGATTAGTGCTA | 0.0925
GAATGTAACTCCTATCCAAGTGTGCTA | 0.438
TCATGACTCTGCCTCTAACTGTGCTAG | -0.0543
TTAGGTTACCTTCTCCTTTAGTGCTAG | 0.122
TTAGAACTGGGGTATCGACTAGTGCTA | 1.43
GACGGTATCGACACTGGGTACGTGCTA | 3.86
CTGCTCCTCTTTTTTTGGTAGTGCTAG | 0.667
GACGGATTCCTTCTCCTGACGTGCTAG | 0.0737
TTAGGTTTAGACTTTCGGTTAGTGCTA | 2.44
TCAGTTATCACTTCCAAACTGTGCTAG | 0.661
GATGGTATCGACTTTCGGGACGTGCTA | 5.82
TCAGTCCTCTCTCTATTACTGTGCTAG | 1.38
TCAGGGCTCTCTTCTGCTACTGTGCTA | -0.0899
TCAGGTCTCGCTATGTTACTGTGCTAG | 1.49
TGAGGACTGCTACTGCTTTAGTGCTAG | -0.283

Set 3 — method: RNA Bind-n-Seq; form: RNA; matrix: in vitro; tested at: 100 nM; reference: input RNA pool; reading: higher = stronger binding
Target: RING finger protein unkempt homolog, zinc fingers 1-6, SBP tag (UNK, Homo sapiens, UniProt Q9C0B0, residues 30-357)
Sequence of UniProt Q9C0B0 (30-357, looked up): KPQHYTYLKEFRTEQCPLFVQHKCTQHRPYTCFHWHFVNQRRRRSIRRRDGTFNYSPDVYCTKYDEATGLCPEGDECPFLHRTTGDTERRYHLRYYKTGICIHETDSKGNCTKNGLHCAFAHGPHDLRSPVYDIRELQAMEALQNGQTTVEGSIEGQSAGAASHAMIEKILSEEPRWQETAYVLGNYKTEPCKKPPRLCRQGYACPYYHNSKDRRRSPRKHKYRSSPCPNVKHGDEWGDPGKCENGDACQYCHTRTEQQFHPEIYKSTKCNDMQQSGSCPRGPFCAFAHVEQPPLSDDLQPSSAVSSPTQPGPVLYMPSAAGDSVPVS
Notes: RNA with constant flanks, vertebrate orthologous sites, ends assumed
Constant ends, left off below: GGGAGUUCUACAGUCCGACGAUC … CAACAGAGGAUUGAGCAUCA
Sequence | bound/input enrichment [ratio]
UUACAGUCAUUGAUGGACUCUAUUUUUUUAUUAUUACUUGGACCUUGGUCGUUUUUAUACUAGCAAUGAAAAUGUCUUGUUUUAAUUUGUUUUUUGGGGUGGGGGUGGGCAAUGUCUUGC | 0.996
AGUUAUCCCAGUUUACUGUGUUGAGUUGGCAUUGUACAGAAAUUAACAGCCAUAUUGGUCUAGAAACGUUAAACUUAAUUUUUUUCCAUUUGUACAGGGGUAACGCACUGUAUUAAAUAC | 0.751
CCCCGAUUUUAGAUGUGAUAUUUAGGCUUUCAUUCCAGUUUGUUUUUGUCUUCUCUUGUUUAGAUACCAAUCUUUUAAAUUCUUGCAUUUUAGUAAGAAAGCUACCUUUUUAUGGAUGUU | 1.95
GAUCUGGACCUUGGAGCUGAACCAGAGAGCUAGCAAAAGUAAGGCAGACUUGUAAAAUUAUAGCCAUGUACAGCUGCACAACAACAGUCCUACCACUAGCAGCUGCAUUAAAGUAUUUAU | 0.554
ACGGGUGUACCUGUGGGGCCCUGCUGGCCACUUAGCGUCGUUUGAUUUGUGACCUUGACAUAAUAGAUAGGCUUGUUGUUUUUUAAUUUAAAGAUAUUAAGACUUAAUUCACUAAAAUUU | 0.43
UCAUUUUUAAUUUUAAUUUUAUUUUAUACAAUGUGUAGACAGUUCCCUGUUCUCUGCAUUUAGAAGUAUACACAAUAUAAAUCUGUUAAUUCUGUAAGUAAUUUUUAUAAUUAUGAUGUA | 0.696
UUCAUUACCUGAGCAGAGUGGAGGUGACGGAGUUUGAAGACAUCAAGUCAGGCUACAGAAUAGAUUUUUCUCGUUAAUUUUUCCAUUUCUGAUGUGUGCGUGGUGUGUAGUCUUACUGCA | 1.06
GUAUCAGUAGACUUACAAAUACUAAAGUUGCAGUUGAAAGGAUAUCCAAGUAUGUGUUGGUAGUUACUAAAAGAAUUCUAGCUGUUAUUGCCUUGUAUUUAUAGCCCUUGUUUCAGGUUU | 0.599
AGUUUUAAGCUUGUUUGCACAGGUUUGUUUUUUUUCCAUUGGAAAUGGAAUCCGUUGCCUUAGGUCUUUUAAAAUAGUGUAUUAUUAUCGUUGGGGCUGGCUCUAUGCUUGAAAACCAGU | 2.16
CCCCUGCCCUGAUUUUAAAAGUCCUUAUACCUUUUUUCCUUUUUUUUUUUUUUUUUAAAGGGAUAUGUAGUAAUGUUAGCAGAAAGAUUUAAUUUGGGCAACUUUGAUUCCUAAAGAGAA | 0.254
GGCACGCCCAGUUGGUCCUCUCGCAGCAAAGGAUUUCAAUUGCUUUUUUUACAACUUUUUUUGAAGUUGCUGCUGCUCUUAACCAUGAUGGUCAGGACACCGCCAAUCCCAGGGGAGAAA | 0.522

Set 4 — target: CCND3, cyclin fold, Cln2 fusion (human); method: yeast growth competition, sequencing; matrix: yeast; notes: weak parent motif; reference: not given; reading: higher = stronger binding
Starting sequence: RBL2 docking peptide (human); STTRRRLFVENDS; partner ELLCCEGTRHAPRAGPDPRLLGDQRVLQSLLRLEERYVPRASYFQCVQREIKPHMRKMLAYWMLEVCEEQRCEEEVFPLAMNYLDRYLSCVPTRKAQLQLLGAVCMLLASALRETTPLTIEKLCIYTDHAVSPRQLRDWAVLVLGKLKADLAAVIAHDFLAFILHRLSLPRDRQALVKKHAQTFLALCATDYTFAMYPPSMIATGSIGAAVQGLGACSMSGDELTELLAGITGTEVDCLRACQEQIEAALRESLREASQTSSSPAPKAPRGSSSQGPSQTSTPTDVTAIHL
Substitution | normalised enrichment score
R4D | 0.00748
T3Q | 0.153
R4S | 0.0234
R4C | 0.185
S1N | 0.103
S13L | 0.115
L7N | 0.126
T2M | 0.145
T3W | 0.154
R6E | 0.049
R5F | 0.0625
F8R | 0.136
F8Y | 0.0497
R5K | 0.0593
V9Y | 0.133
S1H | 0.137
S1V | 0.0896
F8D | 0.108
R5A L7A | 0.0136
T3F | 0.00426
T2W | 0.129
R6I | 0.112
S13W | 0.116
T3L | 0.111
N11E | 0.0889

A few entries again (set 2):
Sequence | fitted relative affinity [z-score]
GATGGTATCGACTTTCGGGACGTGCTA | 5.82
TTCATTATTGTTTCCTCTTTGTGCTAG | 1.82
TCAGTCCTCTCTCTATTACTGTGCTAG | 1.38
TTAGGTATCCTTAACCTTTAGTGCTAG | 0.272
